Measurements from different studies.
Parts stem from different laboratories: compare values within a part only.

Set 1 — method: protein binding microarray; molecule type: double-stranded DNA, one strand shown; matrix: in vitro; concentration: not given; reference: not given; reading: higher = stronger binding
Target: Histone acetyltransferase KAT6A, both winged helices, GST fusion (KAT6A, Homo sapiens, UniProt Q92794, residues 1-181)
Setting: 8-mer, flanks averaged, mean of 2 arrays, mostly near background
Target sequence (chain): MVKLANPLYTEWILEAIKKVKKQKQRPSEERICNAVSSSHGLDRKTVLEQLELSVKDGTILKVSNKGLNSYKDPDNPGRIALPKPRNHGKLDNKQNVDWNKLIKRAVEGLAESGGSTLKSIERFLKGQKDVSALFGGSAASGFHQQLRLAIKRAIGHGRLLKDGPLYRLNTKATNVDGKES
The E-score of `ATGAGTCG` is reported as -0.142.
For `CCGTCACC`, the E-score was 0.165.
The E-score of `AATGATGG` is reported as 0.0507.
With `AGTGCTAC` the E-score was -0.196.
`GCTTCACA` has an E-score of -0.0113.
For `AGGATGGC`, the E-score was -0.00933.
With `GCAAAACC` the E-score was -0.0217.

Set 2 — method: protein-binding microarray; molecule type: double-stranded DNA, one strand shown; matrix: in vitro; concentration: not given; reading: higher = stronger binding
Target: Protein C-ets-1 (ETS1, Homo sapiens, UniProt P14921, residues 1-441, full length assumed)
Chain of UniProt P14921 (whole entry, looked up): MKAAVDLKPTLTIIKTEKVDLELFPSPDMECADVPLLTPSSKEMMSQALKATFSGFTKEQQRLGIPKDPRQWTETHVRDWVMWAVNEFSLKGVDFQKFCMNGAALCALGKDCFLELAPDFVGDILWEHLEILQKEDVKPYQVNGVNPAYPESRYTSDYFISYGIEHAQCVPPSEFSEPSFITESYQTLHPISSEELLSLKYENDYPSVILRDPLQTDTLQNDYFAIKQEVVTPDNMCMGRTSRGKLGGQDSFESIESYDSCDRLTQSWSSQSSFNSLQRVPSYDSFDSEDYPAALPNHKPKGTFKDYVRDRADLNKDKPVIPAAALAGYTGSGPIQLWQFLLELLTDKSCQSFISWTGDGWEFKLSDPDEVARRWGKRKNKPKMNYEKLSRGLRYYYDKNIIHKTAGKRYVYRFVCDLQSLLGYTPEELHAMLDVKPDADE
Setting: k-mer, scored over probes, only values ≥0.25
With `CCCCTCCC` the E-score was 0.287.
With `AAGACGGA` the E-score was 0.333.
The E-score of `GCTCCGGA` is reported as 0.332.
The E-score of `ATCCGTGG` is reported as 0.28.
`TCCGTCAA` has an E-score of 0.307.
`GGGAAGCA` gave an E-score of 0.355.

Set 3 — method: RNA Bind-n-Seq; molecule type: RNA; matrix: in vitro; concentration: 1 µM; setting: whole 134-nt RNA, ends assumed; together with: 150 mM KCl; reference: input library; reading: higher = stronger binding
Target: Ras GTPase-activating protein-binding protein 1, RRM domain (G3BP1, Homo sapiens, UniProt Q13283)
Chain of UniProt Q13283 (whole entry, looked up): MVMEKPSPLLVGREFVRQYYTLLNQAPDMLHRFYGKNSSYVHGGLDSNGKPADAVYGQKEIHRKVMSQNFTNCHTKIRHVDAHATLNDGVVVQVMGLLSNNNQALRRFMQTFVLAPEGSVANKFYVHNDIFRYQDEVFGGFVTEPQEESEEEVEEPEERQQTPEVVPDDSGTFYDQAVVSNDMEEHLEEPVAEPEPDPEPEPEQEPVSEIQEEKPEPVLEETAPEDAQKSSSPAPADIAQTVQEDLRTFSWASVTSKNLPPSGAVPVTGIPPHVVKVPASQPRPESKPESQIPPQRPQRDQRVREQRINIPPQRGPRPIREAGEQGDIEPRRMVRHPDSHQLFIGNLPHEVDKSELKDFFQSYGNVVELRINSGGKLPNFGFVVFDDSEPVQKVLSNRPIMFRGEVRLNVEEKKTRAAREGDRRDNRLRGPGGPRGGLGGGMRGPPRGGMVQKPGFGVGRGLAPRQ
`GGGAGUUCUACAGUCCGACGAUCCUCAAGUCCUGUGCUACACAUCGUAUGUACCGAAUCGGGAGGGUUUGGGAGGGAAAGUAUUAUGUUACGCCGUUCGGAUCUGCACUUCCAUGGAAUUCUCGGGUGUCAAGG` gave a log2 enrichment of 0.849.
`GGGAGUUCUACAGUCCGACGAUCGUCCUGUGCUACACAUCGUAUGUACCGAAUCGGGGAGGGGAAAGGGGUUUUUUUGGGGAAAGUAUUAUGUUACGCCGUUCGGAUCUGCACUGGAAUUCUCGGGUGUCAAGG` gave a log2 enrichment of 1.19.
For `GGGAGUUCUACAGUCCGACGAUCAGUCCUGUGCUACACAUCGUAUGUACCGAAUCGGGGAAAAGGGAAAAGGGAAAAGGGAAAGUAUUAUGUUACGCCGUUCGGAUCUGCACUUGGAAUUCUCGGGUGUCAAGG`, the log2 enrichment was 0.538.
`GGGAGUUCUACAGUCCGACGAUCAAGUCCUGUGCUACACAUCGUAUGUACCGAAUCGGUUUUUGGUUUUUGGAAAAAGGAAAGUAUUAUGUUACGCCGUUCGGAUCUGCACUUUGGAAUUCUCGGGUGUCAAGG` has a log2 enrichment of -0.13.
`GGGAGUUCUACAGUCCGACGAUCUCCUGUGCUACACAUCGUAUGUACCGAAUCGGGGAAAAAGGGGAAAGGGGUUUUUGGGGAAAGUAUUAUGUUACGCCGUUCGGAUCUGCAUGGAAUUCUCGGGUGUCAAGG` has a log2 enrichment of 1.06.
`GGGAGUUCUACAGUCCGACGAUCGGGGAGGUGGAUUUUGUUUAUUUUUUUAGCUCAUUUCCAGGGGUGGGAAUUUUUUUUUAAUAUGUGUCAUGAAUAAAGUUGUUUUUGAAAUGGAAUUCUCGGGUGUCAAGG` has a log2 enrichment of 1.45.
The log2 enrichment of `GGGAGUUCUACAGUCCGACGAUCUUAGGAAGAGAAGACAAGGUGGCCUCUCAUUAGAAGAAGAGGAAGAGGAGGAUGCCAAUUCAGAAUCUGAGGGAAGCAGUAGUGAGGAGGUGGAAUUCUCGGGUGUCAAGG` is reported as -0.257.
With `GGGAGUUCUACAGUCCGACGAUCUCCUGUGCUACACAUCGUAUGUACCGAAUCGGGUUUUUGGGAAAAAAAGGGAAAAAGGGAAAGUAUUAUGUUACGCCGUUCGGAUCUGCAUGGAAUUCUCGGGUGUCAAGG` the log2 enrichment was -0.0309.
For `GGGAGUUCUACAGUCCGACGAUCCUGUGCUACACAUCGUAUGUACCGAAUCGGGUUUUUUUGGGGUUUUUUUGGGUUUUUUUGGGAAAGUAUUAUGUUACGCCGUUCGGAUCUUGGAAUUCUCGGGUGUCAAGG`, the log2 enrichment was -0.136.

Single results of other studies
For `PhoQ, residues 284 288 289 292 302 303 SASVAL`, the fold induction was 11.7 (PhoP, residues 12 14 15 18 19 MHTVL (Escherichia coli, UniProt P23836); Sort-seq, refers to: YFP reporter; E. coli; PhoQ-PhoP variant library, together with: 10 µM Mg2+; reference: high Mg2+ state, higher = stronger signaling).

For quick reference, copied from above (set 3):
For `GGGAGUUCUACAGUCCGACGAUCAGUCCUGUGCUACACAUCGUAUGUACCGAAUCGGGGAAAAGGGAAAAGGGAAAAGGGAAAGUAUUAUGUUACGCCGUUCGGAUCUGCACUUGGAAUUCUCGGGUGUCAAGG`, the log2 enrichment was 0.538.
`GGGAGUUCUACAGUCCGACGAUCAAGUCCUGUGCUACACAUCGUAUGUACCGAAUCGGUUUUUGGUUUUUGGAAAAAGGAAAGUAUUAUGUUACGCCGUUCGGAUCUGCACUUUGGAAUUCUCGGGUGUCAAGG` has a log2 enrichment of -0.13.
`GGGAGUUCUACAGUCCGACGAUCUCCUGUGCUACACAUCGUAUGUACCGAAUCGGGGAAAAAGGGGAAAGGGGUUUUUGGGGAAAGUAUUAUGUUACGCCGUUCGGAUCUGCAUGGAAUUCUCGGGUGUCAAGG` has a log2 enrichment of 1.06.
